{"data": "Results pooled from the literature", "note": "Each numbered part is a random draw from the data of one study; scales do not carry over between parts.", "sequence of UniProt O00421 (whole entry, looked up)": "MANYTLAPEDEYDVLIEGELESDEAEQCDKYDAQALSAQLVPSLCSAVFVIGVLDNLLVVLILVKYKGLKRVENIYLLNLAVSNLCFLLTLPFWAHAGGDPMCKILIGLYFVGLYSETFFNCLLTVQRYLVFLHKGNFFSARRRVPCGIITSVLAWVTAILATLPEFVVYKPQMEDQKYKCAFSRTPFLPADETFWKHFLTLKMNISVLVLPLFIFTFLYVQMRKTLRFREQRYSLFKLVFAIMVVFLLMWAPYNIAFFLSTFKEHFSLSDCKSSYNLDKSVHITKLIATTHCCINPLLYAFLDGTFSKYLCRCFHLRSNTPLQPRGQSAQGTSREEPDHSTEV", "sequence of UniProt O95665 (whole entry, looked up)": "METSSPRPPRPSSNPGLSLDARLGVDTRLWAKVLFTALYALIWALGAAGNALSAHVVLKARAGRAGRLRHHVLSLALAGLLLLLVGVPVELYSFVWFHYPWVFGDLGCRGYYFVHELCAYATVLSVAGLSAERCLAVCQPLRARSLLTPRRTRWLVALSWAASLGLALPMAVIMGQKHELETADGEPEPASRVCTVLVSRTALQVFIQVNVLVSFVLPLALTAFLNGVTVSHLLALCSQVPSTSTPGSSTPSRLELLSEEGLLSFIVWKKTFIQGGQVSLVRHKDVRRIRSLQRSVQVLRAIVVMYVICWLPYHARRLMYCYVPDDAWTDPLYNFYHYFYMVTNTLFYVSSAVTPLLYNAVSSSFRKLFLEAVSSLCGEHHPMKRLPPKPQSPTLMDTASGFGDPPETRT", "sequence of UniProt O75676 (whole entry, looked up)": "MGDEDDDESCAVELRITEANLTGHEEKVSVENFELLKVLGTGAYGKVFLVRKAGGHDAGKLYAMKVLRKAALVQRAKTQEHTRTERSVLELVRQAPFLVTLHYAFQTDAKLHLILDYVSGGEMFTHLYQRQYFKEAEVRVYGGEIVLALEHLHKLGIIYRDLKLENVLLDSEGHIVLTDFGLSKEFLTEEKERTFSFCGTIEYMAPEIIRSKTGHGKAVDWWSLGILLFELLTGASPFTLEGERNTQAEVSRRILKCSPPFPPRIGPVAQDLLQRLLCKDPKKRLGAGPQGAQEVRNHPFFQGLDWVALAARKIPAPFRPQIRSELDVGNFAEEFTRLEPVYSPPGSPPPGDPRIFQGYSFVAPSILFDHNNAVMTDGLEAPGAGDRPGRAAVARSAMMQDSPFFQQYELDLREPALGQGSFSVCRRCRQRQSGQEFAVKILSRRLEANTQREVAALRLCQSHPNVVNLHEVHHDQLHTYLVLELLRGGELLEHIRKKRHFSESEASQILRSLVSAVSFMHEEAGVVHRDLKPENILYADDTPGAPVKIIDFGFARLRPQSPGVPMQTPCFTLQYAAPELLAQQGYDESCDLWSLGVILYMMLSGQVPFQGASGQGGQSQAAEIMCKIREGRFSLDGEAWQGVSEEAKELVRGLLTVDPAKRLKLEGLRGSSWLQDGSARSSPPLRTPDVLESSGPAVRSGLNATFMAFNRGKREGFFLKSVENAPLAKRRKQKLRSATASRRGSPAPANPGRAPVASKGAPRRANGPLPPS", "sequence of UniProt Q56UN5 (whole entry, looked up)": "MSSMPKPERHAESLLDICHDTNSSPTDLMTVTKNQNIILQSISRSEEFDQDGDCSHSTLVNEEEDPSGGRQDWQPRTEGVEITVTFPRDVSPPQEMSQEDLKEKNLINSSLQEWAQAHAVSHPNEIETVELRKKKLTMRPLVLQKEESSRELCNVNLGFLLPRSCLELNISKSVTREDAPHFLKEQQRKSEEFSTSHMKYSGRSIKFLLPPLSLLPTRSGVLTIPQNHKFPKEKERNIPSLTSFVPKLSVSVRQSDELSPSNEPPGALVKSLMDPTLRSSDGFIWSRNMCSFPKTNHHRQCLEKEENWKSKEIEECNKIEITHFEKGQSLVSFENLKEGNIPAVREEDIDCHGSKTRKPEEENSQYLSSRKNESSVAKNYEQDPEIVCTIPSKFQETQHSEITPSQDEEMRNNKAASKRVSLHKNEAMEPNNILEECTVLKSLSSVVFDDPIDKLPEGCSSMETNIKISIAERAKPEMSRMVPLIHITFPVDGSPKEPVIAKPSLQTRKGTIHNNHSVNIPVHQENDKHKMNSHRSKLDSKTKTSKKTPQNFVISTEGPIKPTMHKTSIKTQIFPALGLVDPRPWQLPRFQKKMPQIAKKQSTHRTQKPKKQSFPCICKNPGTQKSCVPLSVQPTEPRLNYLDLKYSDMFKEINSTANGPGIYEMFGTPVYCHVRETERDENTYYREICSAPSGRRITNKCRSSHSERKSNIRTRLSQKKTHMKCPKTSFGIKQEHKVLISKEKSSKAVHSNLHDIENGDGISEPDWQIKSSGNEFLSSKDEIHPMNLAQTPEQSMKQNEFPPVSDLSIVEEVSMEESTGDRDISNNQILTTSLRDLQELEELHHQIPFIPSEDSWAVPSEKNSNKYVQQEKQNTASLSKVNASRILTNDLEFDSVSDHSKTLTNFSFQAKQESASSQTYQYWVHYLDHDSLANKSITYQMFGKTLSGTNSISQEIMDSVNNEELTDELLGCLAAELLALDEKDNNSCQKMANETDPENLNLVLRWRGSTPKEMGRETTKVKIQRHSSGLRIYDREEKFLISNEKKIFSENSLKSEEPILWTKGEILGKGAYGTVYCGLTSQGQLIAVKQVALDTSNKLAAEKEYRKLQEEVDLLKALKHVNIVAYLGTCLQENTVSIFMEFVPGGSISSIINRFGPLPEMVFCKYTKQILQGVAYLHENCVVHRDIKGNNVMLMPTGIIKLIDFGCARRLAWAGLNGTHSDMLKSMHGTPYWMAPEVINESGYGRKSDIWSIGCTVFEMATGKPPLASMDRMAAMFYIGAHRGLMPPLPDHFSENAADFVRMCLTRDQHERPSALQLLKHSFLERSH", "sequence of UniProt Q9NSY1 (whole entry, looked up)": "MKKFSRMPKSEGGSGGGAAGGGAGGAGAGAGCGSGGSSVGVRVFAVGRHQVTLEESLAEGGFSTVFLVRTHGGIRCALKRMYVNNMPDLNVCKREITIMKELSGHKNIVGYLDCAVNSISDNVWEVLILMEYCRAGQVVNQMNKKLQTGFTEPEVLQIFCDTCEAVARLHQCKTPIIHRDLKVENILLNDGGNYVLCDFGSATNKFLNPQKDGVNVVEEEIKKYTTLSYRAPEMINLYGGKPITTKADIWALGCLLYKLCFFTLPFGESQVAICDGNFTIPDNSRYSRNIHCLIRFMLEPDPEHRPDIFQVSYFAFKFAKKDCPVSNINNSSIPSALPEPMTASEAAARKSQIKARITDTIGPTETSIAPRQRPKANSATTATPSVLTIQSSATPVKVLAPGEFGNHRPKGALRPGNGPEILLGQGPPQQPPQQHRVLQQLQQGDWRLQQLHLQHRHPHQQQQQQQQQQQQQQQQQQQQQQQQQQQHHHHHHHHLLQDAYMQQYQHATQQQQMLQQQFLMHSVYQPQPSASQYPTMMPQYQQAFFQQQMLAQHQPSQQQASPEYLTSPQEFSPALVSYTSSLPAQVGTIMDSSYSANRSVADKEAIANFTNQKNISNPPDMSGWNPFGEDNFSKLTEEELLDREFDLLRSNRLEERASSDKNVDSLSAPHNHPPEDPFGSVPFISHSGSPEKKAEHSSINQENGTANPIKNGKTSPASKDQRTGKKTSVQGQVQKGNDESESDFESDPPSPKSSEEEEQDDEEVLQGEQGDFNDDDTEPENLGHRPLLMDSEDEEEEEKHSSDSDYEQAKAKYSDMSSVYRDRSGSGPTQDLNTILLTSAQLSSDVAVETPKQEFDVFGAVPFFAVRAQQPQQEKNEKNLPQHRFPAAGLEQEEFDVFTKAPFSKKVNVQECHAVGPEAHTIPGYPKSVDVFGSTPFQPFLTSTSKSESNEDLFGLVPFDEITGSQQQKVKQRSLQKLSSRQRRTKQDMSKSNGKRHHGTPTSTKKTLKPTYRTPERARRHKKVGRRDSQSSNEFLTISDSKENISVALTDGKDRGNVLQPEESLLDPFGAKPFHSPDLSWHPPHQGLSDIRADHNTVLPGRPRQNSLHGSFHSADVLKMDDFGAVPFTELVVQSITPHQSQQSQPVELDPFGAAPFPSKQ"}
{"data": "Series 1", "SMILES": "C=CCc1ccc(O)c(-c2cc(CC=C)ccc2O)c1", "effect on": "chloride current", "method": "whole-cell voltage clamp", "ANO1 del476-501/F627A": "Anoctamin-1 (ANO1, Homo sapiens, UniProt Q5XXA6, del476-501/F627A)", "sequence of UniProt Q5XXA6 (whole entry, unmodified, looked up)": "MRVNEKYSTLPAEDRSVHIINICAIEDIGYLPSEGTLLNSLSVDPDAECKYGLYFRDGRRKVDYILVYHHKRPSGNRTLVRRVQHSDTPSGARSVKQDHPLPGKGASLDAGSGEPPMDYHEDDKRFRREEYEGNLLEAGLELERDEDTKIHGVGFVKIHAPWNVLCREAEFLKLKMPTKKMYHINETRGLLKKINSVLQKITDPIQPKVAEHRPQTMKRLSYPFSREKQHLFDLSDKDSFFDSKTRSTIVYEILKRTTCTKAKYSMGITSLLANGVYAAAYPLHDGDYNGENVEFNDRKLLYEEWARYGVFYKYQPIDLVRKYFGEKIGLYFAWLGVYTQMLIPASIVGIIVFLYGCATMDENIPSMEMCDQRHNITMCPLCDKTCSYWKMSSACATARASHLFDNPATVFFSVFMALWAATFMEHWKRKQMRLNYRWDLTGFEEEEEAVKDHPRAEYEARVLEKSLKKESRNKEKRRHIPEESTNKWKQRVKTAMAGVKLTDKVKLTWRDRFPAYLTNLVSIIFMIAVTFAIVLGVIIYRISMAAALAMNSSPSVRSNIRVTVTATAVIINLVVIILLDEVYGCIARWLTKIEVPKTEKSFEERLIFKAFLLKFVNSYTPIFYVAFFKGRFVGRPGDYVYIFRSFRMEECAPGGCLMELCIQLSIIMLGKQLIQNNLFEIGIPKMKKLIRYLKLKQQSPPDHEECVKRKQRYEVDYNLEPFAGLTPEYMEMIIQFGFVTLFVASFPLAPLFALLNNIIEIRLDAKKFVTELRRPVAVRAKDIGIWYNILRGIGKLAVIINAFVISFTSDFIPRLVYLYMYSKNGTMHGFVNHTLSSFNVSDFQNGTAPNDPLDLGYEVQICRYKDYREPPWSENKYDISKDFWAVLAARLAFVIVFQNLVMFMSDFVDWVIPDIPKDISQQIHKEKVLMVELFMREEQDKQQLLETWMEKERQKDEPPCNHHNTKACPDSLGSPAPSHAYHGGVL"}
{"target": "Anoctamin-1 (ANO1, Homo sapiens, UniProt Q5XXA6, del476-501/F807A)", "conditions": "membrane voltage 40 mV", "IC50 [µM]": 18.9}
{"target": "Anoctamin-1 (ANO1, Homo sapiens, UniProt Q5XXA6, del476-501/M544V)", "assay": "inhibitor", "conditions": "80 mV holding voltage", "IC50 [µM]": 137}
{"target": "ANO1 del476-501/F627A", "conditions": "membrane voltage -40 mV", "IC50 [µM]": 20.2}
{"target": "ANO1 del476-501/F627A", "conditions": "membrane voltage 20 mV", "IC50 [µM]": 18.4}
{"target": "Anoctamin-1 (ANO1, Homo sapiens, UniProt Q5XXA6, del476-501/R561A)", "conditions": "membrane voltage 20 mV", "IC50 [µM]": 22.5}
{"target": "Anoctamin-1 (ANO1, Homo sapiens, UniProt Q5XXA6, del476-501/E650A)", "conditions": "membrane voltage 40 mV", "IC50 [µM]": 13.9}
{"target": "Anoctamin-1 (ANO1, Homo sapiens, UniProt Q5XXA6, del476-501/M544T)", "assay": "inhibitor", "conditions": "60 mV holding voltage", "IC50 [µM]": 25.5}
{"target": "Anoctamin-1 (ANO1, Homo sapiens, UniProt Q5XXA6, del476-501/K629I)", "assay": "inhibitor", "conditions": "40 mV holding voltage", "IC50 [µM]": 234}
{"target": "Anoctamin-1 (ANO1, Homo sapiens, UniProt Q5XXA6, del476-501/F623A)", "conditions": "membrane voltage 100 mV", "IC50 [µM]": 25.4}
{"data": "Series 2", "Structure (SMILES)": "NC(N)=NC(=O)c1nc(Cl)c(N2CCCCCC2)nc1N", "effect on": "β-arrestin recruitment", "action": "agonist", "method": "PRESTO-Tango", "tested at": "10 µM", "relative to": "untreated"}
{"target": "Probable G-protein coupled receptor 27 (Homo sapiens, UniProt Q9NS67)", "fold over basal": 0.97}
{"target": "Proto-oncogene Mas (Homo sapiens, UniProt P04201)", "fold over basal": 1.39}
{"target": "P2Y purinoceptor 12 (P2RY12, Homo sapiens, UniProt Q9H244)", "fold over basal": 0.74}
{"target": "HTR2B (Homo sapiens, UniProt P41595)", "fold over basal": 0.99}
{"target": "C-C chemokine receptor-like 2 (Homo sapiens, UniProt O00421)", "fold over basal": 0.96}
{"target": "ADGRG1 (Homo sapiens, UniProt Q9Y653)", "fold over basal": 0.78}
{"target": "Probable G-protein coupled receptor 34 (Homo sapiens, UniProt Q9UPC5)", "fold over basal": 0.85}
{"target": "GPR17 (Homo sapiens, UniProt Q13304)", "fold over basal": 0.69}
{"target": "Lysophosphatidic acid receptor 6 (Homo sapiens, UniProt P43657)", "fold over basal": 1.43}
{"target": "NTSR2 (Homo sapiens, UniProt O95665)", "fold over basal": 0.8}
{"target": "LHCGR (Homo sapiens, UniProt P22888)", "fold over basal": "0.5 fold"}
{"data": "Series 3", "SMILES": "COc1cccc(CNC(=O)c2nc3scc(COCc4ccc(C(=O)O)cc4)c3c(=O)[nH]2)c1", "tested at": "1 µM"}
{"target": "BMP2K (Homo sapiens, UniProt Q9NSY1)", "assay": "cell-free assay, competition with immobilised ligand", "remaining binding": "92.3%"}
{"target": "MAP2K1 (Homo sapiens, UniProt Q02750)", "assay": "cell-free assay, competition with immobilised ligand", "remaining binding": "73.5%"}
{"target": "WEE1 (Homo sapiens, UniProt P30291)", "assay": "cell-free assay, competition with immobilised ligand", "remaining binding": "95.7%"}
{"target": "MAP3K6 (Homo sapiens, UniProt O95382)", "assay": "cell-free assay, competition with immobilised ligand", "remaining binding": "74.5%"}
{"target": "CSNK1D (Homo sapiens, UniProt P48730)", "assay": "cell-free assay, competition with immobilised ligand", "remaining binding": "100%"}
{"target": "CDK19 (Homo sapiens, UniProt Q9BWU1)", "assay": "competition binding", "remaining binding": "100%"}
{"target": "Ribosomal protein S6 kinase alpha-4, N-terminal kinase domain (RPS6KA4, Homo sapiens, UniProt O75676)", "assay": "cell-free assay, competition with immobilised ligand", "remaining binding": "100%"}
{"target": "MAP3K19 (Homo sapiens, UniProt Q56UN5)", "assay": "cell-free assay, competition with immobilised ligand", "remaining binding": "79.2%"}
{"target": "HASPIN (Homo sapiens, UniProt Q8TF76)", "assay": "cell-free assay, competition with immobilised ligand", "remaining binding": "92.5%"}
{"target": "PLK1 (Homo sapiens, UniProt P53350)", "assay": "cell-free assay, competition with immobilised ligand", "remaining binding": "54.1%"}
{"target": "PIK3CA (Homo sapiens, UniProt P42336, E542K)", "assay": "cell-free assay, competition with immobilised ligand", "remaining binding": "76.1%"}
{"target": "CDK13 (Homo sapiens, UniProt Q14004)", "assay": "cell-free assay, competition with immobilised ligand", "remaining binding": "67.6%"}
{"target": "FLT3 (Homo sapiens, UniProt P36888, D835V/ITD)", "assay": "cell-free assay, competition with immobilised ligand", "remaining binding": "58.4%"}
{"target": "MKNK2 (Homo sapiens, UniProt Q9HBH9)", "assay": "cell-free assay, competition with immobilised ligand", "remaining binding": "73.2%"}
{"target": "MAP3K1 (Homo sapiens, UniProt Q13233)", "assay": "cell-free assay, competition with immobilised ligand", "remaining binding": "63.1%"}
{"target": "STK32C (Homo sapiens, UniProt Q86UX6)", "assay": "cell-free assay, competition with immobilised ligand", "remaining binding": "89.6%"}
{"target": "Tyrosine-protein kinase ABL1, non-phosphorylated (ABL1, Homo sapiens, UniProt P00519, F317L)", "assay": "cell-free assay, competition with immobilised ligand", "remaining binding": "78.7%"}
{"target": "MELK (Homo sapiens, UniProt Q14680)", "assay": "cell-free assay, competition with immobilised ligand", "remaining binding": "100%"}
{"target": "CHUK (Homo sapiens, UniProt O15111)", "assay": "cell-free assay, competition with immobilised ligand", "remaining binding": "64.8%"}
{"target": "MAP2K4 (Homo sapiens, UniProt P45985)", "assay": "cell-free assay, competition with immobilised ligand", "remaining binding": "59.7%"}
{"target": "AAK1 (Homo sapiens, UniProt Q2M2I8)", "assay": "binding", "remaining binding": "100%"}
{"target": "MAPK11 (Homo sapiens, UniProt Q15759)", "assay": "cell-free assay, competition with immobilised ligand", "remaining binding": "100%"}
{"target": "CSNK1A1L (Homo sapiens, UniProt Q8N752)", "assay": "cell-free assay, competition with immobilised ligand", "remaining binding": "94.1%"}
{"target": "MAP3K4 (Homo sapiens, UniProt Q9Y6R4)", "assay": "cell-free assay, competition with immobilised ligand", "remaining binding": "86.6%"}
{"target": "DYRK1B (Homo sapiens, UniProt Q9Y463)", "assay": "cell-free assay, competition with immobilised ligand", "remaining binding": "100%"}
{"data": "Series 4", "target": "Diamine acetyltransferase 1 (Homo sapiens, UniProt P21673)", "action": "inhibitor", "tested at": "10 µM", "relative to": "control", "Construct (P21673 1-171)": "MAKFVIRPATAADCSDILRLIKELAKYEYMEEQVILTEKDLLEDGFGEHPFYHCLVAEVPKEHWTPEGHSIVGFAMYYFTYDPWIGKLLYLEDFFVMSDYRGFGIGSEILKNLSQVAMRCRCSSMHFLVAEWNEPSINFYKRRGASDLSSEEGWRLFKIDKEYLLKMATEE"}
{"SMILES": "Oc1cc(O)c2c(c1)O[C@H](c1cc(O)c(O)c(O)c1)[C@@H](O)C2", "remaining activity [%]": 96}
{"SMILES": "O[C@@H]1[C@@H](O)[C@H](OC/C=C/c2ccccc2)O[C@H](CO[C@@H]2OC[C@H](O)[C@H](O)[C@H]2O)[C@H]1O", "remaining activity [%]": 89.8}
{"SMILES": "CCC/C=C1\\OC(=O)C2=C1CC[C@H](O)[C@H]2O", "remaining activity [%]": 81.2}
{"SMILES": "C=C1C(=O)O[C@H]2[C@H]1CC/C(C)=C/CC[C@@]1(C)O[C@@H]21", "remaining activity [%]": 101}
{"SMILES": "CC(=O)O[C@H]1[C@H](O[C@H]2CC[C@]34C[C@]35CC[C@]3(C)[C@@H]([C@@]6(C)CC[C@@H](C(C)(C)O)O6)[C@@H](O)C[C@@]3(C)[C@@H]5C[C@H](O[C@@H]3O[C@H](CO)[C@@H](O)[C@H](O)[C@H]3O)[C@H]4C2(C)C)OC[C@@H](OC(C)=O)[C@@H]1O", "remaining activity [%]": 84.1}
{"SMILES": "C/C(=C\\C(=O)CC(C)C(=O)O)[C@H]1CC(=O)[C@@]2(C)C3=C(C(=O)C[C@]12C)[C@@]1(C)CCC(=O)C(C)(C)[C@@H]1C[C@@H]3O (stereo partly shown)", "remaining activity [%]": 103}
{"SMILES": "OC[C@H]1O[C@@](CO)(O[C@H]2O[C@H](CO)[C@@H](O)[C@H](O)[C@H]2O)[C@@H](O)[C@@H]1O", "remaining activity [%]": 84.3}
{"note": "A few entries again (series 4):"}
{"SMILES": "CCC/C=C1\\OC(=O)C2=C1CC[C@H](O)[C@H]2O", "remaining activity [%]": 81.2}
{"SMILES": "OC[C@H]1O[C@@](CO)(O[C@H]2O[C@H](CO)[C@@H](O)[C@H](O)[C@H]2O)[C@@H](O)[C@@H]1O", "remaining activity [%]": 84.3}
{"SMILES": "CC(=O)O[C@H]1[C@H](O[C@H]2CC[C@]34C[C@]35CC[C@]3(C)[C@@H]([C@@]6(C)CC[C@@H](C(C)(C)O)O6)[C@@H](O)C[C@@]3(C)[C@@H]5C[C@H](O[C@@H]3O[C@H](CO)[C@@H](O)[C@H](O)[C@H]3O)[C@H]4C2(C)C)OC[C@@H](OC(C)=O)[C@@H]1O", "remaining activity [%]": 84.1}
{"SMILES": "C=C1C(=O)O[C@H]2[C@H]1CC/C(C)=C/CC[C@@]1(C)O[C@@H]21", "remaining activity [%]": 101}
{"SMILES": "O[C@@H]1[C@@H](O)[C@H](OC/C=C/c2ccccc2)O[C@H](CO[C@@H]2OC[C@H](O)[C@H](O)[C@H]2O)[C@H]1O", "remaining activity [%]": 89.8}
{"SMILES": "Oc1cc(O)c2c(c1)O[C@H](c1cc(O)c(O)c(O)c1)[C@@H](O)C2", "remaining activity [%]": 96}
{"SMILES": "C/C(=C\\C(=O)CC(C)C(=O)O)[C@H]1CC(=O)[C@@]2(C)C3=C(C(=O)C[C@]12C)[C@@]1(C)CCC(=O)C(C)(C)[C@@H]1C[C@@H]3O (stereo partly shown)", "remaining activity [%]": 103}
